Experimental data pooled from the literature.
Protocols differ between the studies behind these lines.
Cell line: HCT-116

SMILES	assay	setting	how to read	endpoint	result
Cc1ccc(C)n1-c1ccc(C(=O)ON2C(=O)CCC2=O)cc1	MTS	1.6 to 25 µM, 48 h	–	cytotoxicity	not toxic
O=C(NCCNc1n[n+]([O-])c2ccccc2[n+]1[O-])C(F)(F)F	–	–	relative to: normoxic IC50 over hypoxic IC50	hypoxic cytotoxicity ratio	1.3
N#Cc1c(NC(=O)CN2CCOCC2)sc2c1CCC(c1ccccc1)C2 (stereo not drawn)	cell growth or viability, LDH	100 µg/mL, 24 h	–	viability	90.5%
O=C(NCCc1cccc(F)c1)[C@@H]1C[C@@H](Sc2nc3ccccc3[nH]2)CN1Cc1cccc(Cl)c1	cell growth or viability, CCK-8	24 h	–	IC50	15.2 µM
CCCCCCCCCCCCCCCC(=O)NCCCC[C@H](NC(=O)[C@H](CCCNC(=N)N)NC(=O)[C@H](CCCCNC(=O)CCCCCCCCCCCCCCC)NC(C)=O)C(=O)O	cell proliferation	100 µM, 24 h, 37 °C, serum-containing medium	–	inhibition	3%
CSc1nc(Nc2ccc(/C(C)=N/NC(=O)c3ccc([N+](=O)[O-])cc3[N+](=O)[O-])cc2)c(C#N)c(-c2ccccc2)n1	annexin V-FITC	1.14 µM, 24 h	–	viable cells	78.6%
O=C(NCCCCCCNc1n[n+]([O-])c2ccccc2[n+]1[O-])C(F)(F)F	–	–	relative to: normoxic IC50 over hypoxic IC50	hypoxic cytotoxicity ratio	1.7
N#Cc1c(NC(=O)CCl)sc2c1CCC(c1ccccc1)C2 (stereo not drawn)	cell growth or viability, LDH	100 µg/mL, 24 h	–	viability	65.5%
CCCCn1cc(C(=O)O)c(=O)c2cc(F)c3[nH]nnc3c21	cell growth or viability, SRB	–	–	IC50	166 µM
COC(=O)ON=C1C(=O)NN(c2ccccc2)C1=O	MTS	1.6 to 25 µM, 48 h	–	cytotoxicity	not toxic
O=C(NCCCCCCCCNc1n[n+]([O-])c2ccccc2[n+]1[O-])C(F)(F)F	–	–	relative to: normoxic IC50 over hypoxic IC50	hypoxic cytotoxicity ratio	2.2
CCCCn1cc(C(=O)O)c(=O)c2cc(F)c(N)c([N+](=O)[O-])c21	cell growth or viability, SRB	–	–	IC50	303 µM

For quick reference, copied from above:
SMILES	assay	setting	how to read	endpoint	result
CSc1nc(Nc2ccc(/C(C)=N/NC(=O)c3ccc([N+](=O)[O-])cc3[N+](=O)[O-])cc2)c(C#N)c(-c2ccccc2)n1	annexin V-FITC	1.14 µM, 24 h	–	viable cells	78.6%
O=C(NCCCCCCNc1n[n+]([O-])c2ccccc2[n+]1[O-])C(F)(F)F	–	–	relative to: normoxic IC50 over hypoxic IC50	hypoxic cytotoxicity ratio	1.7
